Measurements pooled from the literature.
Each line is one published result; not all experiments were run side by side. Values joined by “and” are separate records of one study, mostly repeats; a detail may differ. Numbers after ± are the reported error.

SMILES	test system	conditions	scale	quantity	value
O=c1[nH]c(=O)n([C@@H]2O[C@H](CO)[C@@H](O)[C@@H]2F)cc1CCC[18F]	nude mice, RG2 tumour, HSV1-tk expressing RG2 tumour	2 h post injection	–	tumour uptake	0.2 ± 0.11 %ID/g
C=C1CC[C@H](OCCCNC(=O)CCOCCOCCOCCOCCOCCOCCOCCOCCOCCOCCOCCOCCOCCOCCOCCOCCOCCOCCOCCOCCOCCOCCOCCOCCOCCOCCOCCOCCOCCOCCOCCOCCOCCOCCOCCOCCNC(=O)CCN2C(=O)CC(SC[C@H](NC(=O)[C@H](CCCNC(=N)N)NC(=O)[C@@H]3CCCN3C(=O)[C@H](CCC(N)=O)NC(=O)[C@H](CC(C)C)NC(=O)[C@H](CCCCN)NC(=O)[C@H](C)NC(=O)[C@@H]3CCCN3C(=O)[C@@H]3CCCN3C(=O)[C@H](CCCCN)NC(=O)[C@H](CCCCN)NC(=O)[C@H](CO)NC(=O)[C@H](CCC(=O)O)NC(=O)[C@H](CCCCN)NC(=O)[C@H](CCCNC(=N)N)NC(=O)[C@H](CCC(N)=O)NC(=O)[C@H](CCC(N)=O)NC(=O)[C@@H](NC(=O)[C@H](CCCNC(=N)N)NC(=O)[C@H](CCC(N)=O)NC(=O)[C@H](Cc3c[nH]cn3)NC(=O)[C@H](CCC(=O)O)NC(=O)[C@@H]3CCCN3C(=O)[C@H](CO)NC(=O)[C@H](CC(C)C)NC(=O)[C@H](Cc3ccccc3)NC(=O)[C@H](CNC(=O)CCCCCCC)NC(=O)[C@H](CO)NC(=O)CN)C(C)C)C(=O)O)C2=O)C/C1=C/C=C1\CCC[C@]2(C)[C@@H]([C@H](C)CCCC(C)(C)O)CC[C@@H]12 (stereo partly drawn)	mice, LLC tumour-bearing	dose not given	reference: pair-fed tumour-bearing	tumour mass	no effect
N=C(N)NCCC[C@@H](NC(=O)CCOCCOCCNC(=O)[C@H](CCCCNC(=O)CC[C@H](NC(=O)c1ccc(NCc2cnc3nc(N)[nH]c(=O)c3n2)cc1)C(=O)O)NC(=O)CO/N=C/[C@H](F)[C@@H](O)[C@H](O)[C@H](O)CO)C(=O)NCC(=O)N[C@H](CC(=O)O)C(N)=O [fluorine-18 labelled]	female nude mice, MDA-MB-231 xenograft, tumour	intravenous, 2.5 h	–	tumour uptake	2.09 ± 0.7 %ID/g
C[C@@H]1COCCN1c1cc([C@]2(O)C[C@H]3CC[C@@H](C2)O3)c2cnn(-c3cc[nH]n3)c2n1	LoVo xenograft mice	15 mg/kg once daily for 7 days, day 17	–	tumour growth inhibition	75.7 ± 5.4%
O=c1[nH]c(=O)n([C@@H]2O[C@H](CO)[C@@H](O)[C@@H]2F)cc1CCCCC[18F]	nude mice, RG2 tumour, HSV1-tk expressing RG2 tumour	2 h post injection	–	tumour uptake	0.17 ± 0.03 %ID/g
C=CCn1c(=O)c2cnc(Nc3ccc(N4CCN(C)CC4)cc3)nc2n1-c1ccc2c(n1)[C@@](O)(CC)CC2	OVCAR-3 xenograft, NOD/SCID mice	oral, 80 mg/kg, day 56, once daily intermittent	–	tumour volume difference	127 ± 41.6 mm3
CCNc1nc2c(c(N3CC(=O)Nc4cc(OC)ccc43)n1)CCC2	mice, A-375/TxR xenograft	intravenous, 2 mg/kg twice weekly, 3 weeks	reference: vehicle	tumour weight decrease	47.4%
NCc1cc2c(cc1F)C(=O)N(C1CCC(=O)NC1=O)C2 (stereo not drawn)	mice, HCC PDX models	oral, 100 mg/kg twice daily, four additional models	–	tumour growth inhibition	16 to 33%
O=c1[nH]c(=O)n([C@@H]2O[C@H](CO)[C@@H](O)[C@@H]2F)cc1[125I]	nude mice, RG2 tumour, wild-type RG2 tumour	2 h post injection	–	tumour uptake	0.73 ± 0.17 %ID/g
COc1cc(N2CCC(N3CCN(C)CC3)CC2)ccc1Nc1ncc(Cl)c(Nc2ccccc2P(C)(C)=O)n1	nude mice, NCI-H3122 xenograft	intraperitoneal, 10 mg/kg every other day, day 16	–	tumour volume	387 mm3 and 438 mm3 and 567 mm3 and 494 mm3 and 683 mm3
C=CC(=O)Nc1cc(Nc2ncc(C(=O)OC(C)C)c(-c3cn(C)c4ccccc34)n2)c(OC)cc1N(C)CCN(C)C	NCI-H2073 EGFR SVD knock-in xenograft, BALB/c nude mice	30 mg/kg once daily, 21 days	–	tumour growth inhibition	95.2%
O=c1[nH]c(=O)n([C@@H]2O[C@H](CO)[C@@H](O)[C@@H]2F)cc1CCCC[18F]	nude mice, RG2 tumour, wild-type RG2 tumour	2 h post injection	–	tumour uptake	0.16 ± 0.04 %ID/g

A few entries again:
SMILES	test system	conditions	scale	quantity	value
C=C1CC[C@H](OCCCNC(=O)CCOCCOCCOCCOCCOCCOCCOCCOCCOCCOCCOCCOCCOCCOCCOCCOCCOCCOCCOCCOCCOCCOCCOCCOCCOCCOCCOCCOCCOCCOCCOCCOCCOCCOCCOCCOCCNC(=O)CCN2C(=O)CC(SC[C@H](NC(=O)[C@H](CCCNC(=N)N)NC(=O)[C@@H]3CCCN3C(=O)[C@H](CCC(N)=O)NC(=O)[C@H](CC(C)C)NC(=O)[C@H](CCCCN)NC(=O)[C@H](C)NC(=O)[C@@H]3CCCN3C(=O)[C@@H]3CCCN3C(=O)[C@H](CCCCN)NC(=O)[C@H](CCCCN)NC(=O)[C@H](CO)NC(=O)[C@H](CCC(=O)O)NC(=O)[C@H](CCCCN)NC(=O)[C@H](CCCNC(=N)N)NC(=O)[C@H](CCC(N)=O)NC(=O)[C@H](CCC(N)=O)NC(=O)[C@@H](NC(=O)[C@H](CCCNC(=N)N)NC(=O)[C@H](CCC(N)=O)NC(=O)[C@H](Cc3c[nH]cn3)NC(=O)[C@H](CCC(=O)O)NC(=O)[C@@H]3CCCN3C(=O)[C@H](CO)NC(=O)[C@H](CC(C)C)NC(=O)[C@H](Cc3ccccc3)NC(=O)[C@H](CNC(=O)CCCCCCC)NC(=O)[C@H](CO)NC(=O)CN)C(C)C)C(=O)O)C2=O)C/C1=C/C=C1\CCC[C@]2(C)[C@@H]([C@H](C)CCCC(C)(C)O)CC[C@@H]12 (stereo partly drawn)	mice, LLC tumour-bearing	dose not given	reference: pair-fed tumour-bearing	tumour mass	no effect
N=C(N)NCCC[C@@H](NC(=O)CCOCCOCCNC(=O)[C@H](CCCCNC(=O)CC[C@H](NC(=O)c1ccc(NCc2cnc3nc(N)[nH]c(=O)c3n2)cc1)C(=O)O)NC(=O)CO/N=C/[C@H](F)[C@@H](O)[C@H](O)[C@H](O)CO)C(=O)NCC(=O)N[C@H](CC(=O)O)C(N)=O [fluorine-18 labelled]	female nude mice, MDA-MB-231 xenograft, tumour	intravenous, 2.5 h	–	tumour uptake	2.09 ± 0.7 %ID/g
